# Published values gathered from unrelated publications.
# Parts stem from different laboratories: compare values within a part only.
# UniProt P10721, sequence (whole entry, unmodified, looked up): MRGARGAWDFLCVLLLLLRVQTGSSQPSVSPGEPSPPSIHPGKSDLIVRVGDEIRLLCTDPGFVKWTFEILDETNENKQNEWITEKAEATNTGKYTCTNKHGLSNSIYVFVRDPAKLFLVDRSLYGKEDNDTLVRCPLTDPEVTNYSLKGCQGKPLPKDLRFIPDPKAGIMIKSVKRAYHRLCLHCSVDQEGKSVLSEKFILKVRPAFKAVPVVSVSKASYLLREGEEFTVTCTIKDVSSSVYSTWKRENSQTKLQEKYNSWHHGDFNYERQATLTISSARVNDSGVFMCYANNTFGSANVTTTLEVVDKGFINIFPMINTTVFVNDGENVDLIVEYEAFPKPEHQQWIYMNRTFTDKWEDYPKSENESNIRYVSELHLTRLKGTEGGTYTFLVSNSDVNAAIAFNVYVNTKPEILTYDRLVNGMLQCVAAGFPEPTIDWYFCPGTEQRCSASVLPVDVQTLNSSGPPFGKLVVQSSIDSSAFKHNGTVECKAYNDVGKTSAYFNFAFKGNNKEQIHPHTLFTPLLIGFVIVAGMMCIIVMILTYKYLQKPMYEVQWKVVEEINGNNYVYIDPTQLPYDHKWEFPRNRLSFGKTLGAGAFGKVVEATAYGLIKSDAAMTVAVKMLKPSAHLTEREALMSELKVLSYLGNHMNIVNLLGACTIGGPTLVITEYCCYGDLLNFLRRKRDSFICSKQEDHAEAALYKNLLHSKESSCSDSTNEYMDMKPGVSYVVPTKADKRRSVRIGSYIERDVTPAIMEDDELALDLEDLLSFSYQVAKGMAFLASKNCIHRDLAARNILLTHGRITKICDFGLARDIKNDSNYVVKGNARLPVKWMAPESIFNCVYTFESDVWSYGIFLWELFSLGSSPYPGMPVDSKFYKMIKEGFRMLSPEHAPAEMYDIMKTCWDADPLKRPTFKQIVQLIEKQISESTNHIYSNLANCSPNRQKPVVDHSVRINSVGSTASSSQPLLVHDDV
# UniProt Q16620, sequence (whole entry, looked up): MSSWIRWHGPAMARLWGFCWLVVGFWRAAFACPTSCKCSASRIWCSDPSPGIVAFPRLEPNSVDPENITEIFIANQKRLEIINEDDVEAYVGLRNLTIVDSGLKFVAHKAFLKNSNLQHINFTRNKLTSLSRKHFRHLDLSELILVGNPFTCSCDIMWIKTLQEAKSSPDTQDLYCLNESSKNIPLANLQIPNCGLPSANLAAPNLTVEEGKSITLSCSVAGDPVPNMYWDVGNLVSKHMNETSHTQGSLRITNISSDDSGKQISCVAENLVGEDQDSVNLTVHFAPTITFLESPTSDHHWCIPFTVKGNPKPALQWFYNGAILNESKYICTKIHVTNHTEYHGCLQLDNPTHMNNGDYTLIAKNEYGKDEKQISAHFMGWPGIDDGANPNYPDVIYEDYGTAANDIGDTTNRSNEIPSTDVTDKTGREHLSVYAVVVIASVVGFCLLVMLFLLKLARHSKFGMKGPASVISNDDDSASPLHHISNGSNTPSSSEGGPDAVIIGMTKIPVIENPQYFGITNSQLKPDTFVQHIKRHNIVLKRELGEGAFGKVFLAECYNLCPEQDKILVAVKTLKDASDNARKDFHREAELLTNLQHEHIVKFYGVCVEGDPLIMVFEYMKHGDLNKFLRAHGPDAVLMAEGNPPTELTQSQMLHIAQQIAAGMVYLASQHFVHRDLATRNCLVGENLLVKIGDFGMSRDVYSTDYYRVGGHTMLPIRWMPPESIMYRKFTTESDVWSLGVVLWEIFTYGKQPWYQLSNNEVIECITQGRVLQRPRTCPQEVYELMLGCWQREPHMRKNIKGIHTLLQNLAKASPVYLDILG
# UniProt Q9UPZ9, sequence (whole entry, looked up): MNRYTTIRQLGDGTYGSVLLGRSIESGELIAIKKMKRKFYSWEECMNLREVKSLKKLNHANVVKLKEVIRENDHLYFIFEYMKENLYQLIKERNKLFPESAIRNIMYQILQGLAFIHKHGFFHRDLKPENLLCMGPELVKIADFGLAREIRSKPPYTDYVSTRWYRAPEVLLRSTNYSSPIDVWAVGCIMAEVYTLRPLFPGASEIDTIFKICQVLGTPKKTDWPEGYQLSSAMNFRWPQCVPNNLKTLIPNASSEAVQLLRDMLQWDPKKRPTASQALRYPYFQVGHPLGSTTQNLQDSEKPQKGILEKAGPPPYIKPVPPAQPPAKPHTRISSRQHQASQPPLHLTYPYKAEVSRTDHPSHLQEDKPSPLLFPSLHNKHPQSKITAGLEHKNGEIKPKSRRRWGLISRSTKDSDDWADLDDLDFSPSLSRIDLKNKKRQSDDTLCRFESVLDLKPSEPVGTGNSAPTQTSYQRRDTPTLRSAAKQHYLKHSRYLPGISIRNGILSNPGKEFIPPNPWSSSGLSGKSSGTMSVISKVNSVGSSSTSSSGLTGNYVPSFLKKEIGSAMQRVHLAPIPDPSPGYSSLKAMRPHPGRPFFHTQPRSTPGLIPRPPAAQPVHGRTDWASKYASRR
# UniProt Q00535, sequence (whole entry, looked up): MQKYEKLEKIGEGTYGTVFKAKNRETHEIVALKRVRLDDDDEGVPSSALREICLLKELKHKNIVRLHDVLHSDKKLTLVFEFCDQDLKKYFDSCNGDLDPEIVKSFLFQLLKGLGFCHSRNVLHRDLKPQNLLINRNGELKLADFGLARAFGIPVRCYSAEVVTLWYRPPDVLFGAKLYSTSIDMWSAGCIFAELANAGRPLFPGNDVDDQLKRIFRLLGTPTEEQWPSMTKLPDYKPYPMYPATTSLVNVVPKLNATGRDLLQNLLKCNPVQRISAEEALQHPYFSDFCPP
# UniProt Q9P289, sequence (whole entry, looked up): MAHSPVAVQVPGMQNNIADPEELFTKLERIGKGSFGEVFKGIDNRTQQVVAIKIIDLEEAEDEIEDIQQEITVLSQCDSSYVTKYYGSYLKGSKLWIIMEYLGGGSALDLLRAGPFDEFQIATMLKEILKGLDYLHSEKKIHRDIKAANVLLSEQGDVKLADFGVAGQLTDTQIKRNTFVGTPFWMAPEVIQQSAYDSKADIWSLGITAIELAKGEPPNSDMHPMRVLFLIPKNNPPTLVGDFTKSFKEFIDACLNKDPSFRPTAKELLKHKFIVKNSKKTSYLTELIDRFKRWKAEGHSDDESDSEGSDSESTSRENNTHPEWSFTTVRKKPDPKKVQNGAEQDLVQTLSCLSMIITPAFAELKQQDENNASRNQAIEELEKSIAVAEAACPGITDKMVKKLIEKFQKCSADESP
# UniProt P50750, sequence (whole entry, looked up): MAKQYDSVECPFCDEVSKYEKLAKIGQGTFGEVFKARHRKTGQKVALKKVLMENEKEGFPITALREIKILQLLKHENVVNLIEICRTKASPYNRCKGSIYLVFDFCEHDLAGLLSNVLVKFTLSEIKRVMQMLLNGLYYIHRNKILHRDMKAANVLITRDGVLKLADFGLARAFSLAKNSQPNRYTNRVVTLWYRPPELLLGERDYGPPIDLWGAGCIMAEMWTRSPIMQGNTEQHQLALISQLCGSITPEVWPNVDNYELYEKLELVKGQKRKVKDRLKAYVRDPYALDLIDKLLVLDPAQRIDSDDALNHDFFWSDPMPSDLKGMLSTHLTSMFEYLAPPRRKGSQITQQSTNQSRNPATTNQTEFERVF

# Study 1
# Cell line: HaCaT
# Tested at: 100 µM
# Time: 60 h
SMILES,viability [%]
O=C(O)c1ccc(S(=O)(=O)N(Cl)Cl)cc1,134
COc1ccc(NS(=O)(=O)c2ccc(N)cc2)nn1,84
O=[N+]([O-])c1cncn1CCN1CCOCC1,134
CCOC(=O)[C@H](CCc1ccccc1)N[C@@H](C)C(=O)N1CCC[C@H]1C(=O)O,152
Nc1c(CC(=O)O)cccc1C(=O)c1ccccc1,143
Cc1nc(C)c(Cl)c(O)c1Cl,110
CC(C)NCC(O)COc1cccc2[nH]ccc12 (stereo not shown),134
CC1(C)O[C@@H]2C[C@H]3[C@@H]4CCC5=CC(=O)C=C[C@]5(C)[C@@]4(F)[C@@H](O)C[C@]3(C)[C@]2(C(=O)CO)O1,142
Cc1cc2c(cc1S(N)(=O)=O)S(=O)(=O)CCC2,148
COc1c2occc2cc2ccc(=O)oc12,75.9
Cc1cccc(Nc2ccncc2S(=O)(=O)NC(=O)NC(C)C)c1,134

# Study 2
# Target: Insulin receptor (INSR, Homo sapiens, UniProt P06213)
# UniProt P06213, sequence (whole entry, looked up): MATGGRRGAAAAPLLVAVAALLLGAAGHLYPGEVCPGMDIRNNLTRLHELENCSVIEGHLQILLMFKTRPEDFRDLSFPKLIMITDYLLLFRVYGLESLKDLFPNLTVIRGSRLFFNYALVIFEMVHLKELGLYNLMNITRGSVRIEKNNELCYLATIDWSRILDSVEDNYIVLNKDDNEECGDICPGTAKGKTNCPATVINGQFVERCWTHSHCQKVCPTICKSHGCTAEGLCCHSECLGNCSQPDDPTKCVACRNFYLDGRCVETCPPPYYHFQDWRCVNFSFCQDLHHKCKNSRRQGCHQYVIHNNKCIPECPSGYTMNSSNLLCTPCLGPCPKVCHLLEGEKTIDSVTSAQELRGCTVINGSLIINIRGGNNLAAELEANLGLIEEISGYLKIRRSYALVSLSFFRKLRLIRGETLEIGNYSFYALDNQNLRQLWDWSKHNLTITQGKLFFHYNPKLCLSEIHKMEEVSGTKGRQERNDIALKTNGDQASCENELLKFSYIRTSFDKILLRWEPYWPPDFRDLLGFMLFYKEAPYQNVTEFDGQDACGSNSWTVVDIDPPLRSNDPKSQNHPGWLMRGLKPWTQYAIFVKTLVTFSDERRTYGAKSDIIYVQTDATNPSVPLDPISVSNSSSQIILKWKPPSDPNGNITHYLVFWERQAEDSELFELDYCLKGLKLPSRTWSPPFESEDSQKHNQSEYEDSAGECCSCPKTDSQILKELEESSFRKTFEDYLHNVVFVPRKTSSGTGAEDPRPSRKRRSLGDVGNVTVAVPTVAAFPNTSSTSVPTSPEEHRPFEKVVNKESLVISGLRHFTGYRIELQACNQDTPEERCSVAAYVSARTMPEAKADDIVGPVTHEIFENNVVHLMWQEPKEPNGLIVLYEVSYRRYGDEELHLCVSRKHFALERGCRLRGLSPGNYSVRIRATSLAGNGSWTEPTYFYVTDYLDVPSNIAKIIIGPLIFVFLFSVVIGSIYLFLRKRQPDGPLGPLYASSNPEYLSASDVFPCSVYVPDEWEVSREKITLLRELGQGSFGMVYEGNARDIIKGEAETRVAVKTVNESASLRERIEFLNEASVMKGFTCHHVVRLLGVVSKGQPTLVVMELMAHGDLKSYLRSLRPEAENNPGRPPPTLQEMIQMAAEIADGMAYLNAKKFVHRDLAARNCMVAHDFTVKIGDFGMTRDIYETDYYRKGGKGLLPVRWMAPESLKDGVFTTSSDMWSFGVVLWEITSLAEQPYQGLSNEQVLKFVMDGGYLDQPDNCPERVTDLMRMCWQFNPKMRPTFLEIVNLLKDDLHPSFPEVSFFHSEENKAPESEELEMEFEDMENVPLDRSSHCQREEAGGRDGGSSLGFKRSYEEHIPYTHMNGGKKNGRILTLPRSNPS
# Observed: enzyme activity
# Mode: inhibitor
# Tested at: 0.5 µM
# Baseline: control
SMILES,remaining activity [%]
N#C/C(=C(/N)SC1C=CC=CC1)c1cccc(C(O)c2ccncc2)c1 (stereo not shown),105
FC(F)(F)c1ccc(/C=C/c2nc(COc3ccc(CCCCn4ccnn4)cc3)co2)cc1,99.6
CCN(CC)CCCCN1c2ccccc2Oc2ccc(Cl)cc21,109
C[C@@H](N)[C@H]1CC[C@H](C(=O)Nc2ccncc2)CC1,94.4
c1cc(-c2cnn3cc(-c4ccc(OCCN5CCCCC5)cc4)cnc23)ccn1,94.9
COc1cc2c(N3CCN(C(=O)Nc4ccc(OC(C)C)cc4)CC3)ncnc2cc1OCCCN1CCCCC1,99.3
O=C(O)/C=C/c1cc(Br)c(Br)c(Br)c1Br,98.6
Clc1ccc(Nc2nnc(Cc3ccncc3)c3ccccc23)cc1,99.9
O=C1NC(=O)/C(=C/c2ccc3c(c2)OC(F)(F)O3)S1,106
CNc1cc2c(Nc3cccc(Br)c3)ncnc2cn1,100
N#CC(c1ccnc(NCCc2cccnc2)n1)c1nc2ccccc2s1 (stereo not shown),100
CCCCc1c(-c2ccc(O)cc2)[nH]c2nccnc12,99.6
CC(C)(C)c1nc2c3cc[nH]c(=O)c3c3cc(F)ccc3c2[nH]1,80.6
O=Nc1c(-c2c(O)[nH]c3ccccc23)[nH]c2ccccc12,66.8
NC(=O)c1ccc(-c2nc(-c3ccc4c(c3)OCCO4)c(-c3ccccn3)[nH]2)cc1,96.3
CC(C)n1cnc2c(Nc3cccc(Cl)c3)nc(NCCO)nc21,97.3
O=C1c2ccccc2-c2nc3nnnn3nc21,32.3
CC(C)N(CCC(=O)c1ccc2ccccc2c1)Cc1ccccc1,107
O=c1c(-c2ccc(F)cc2)c(-c2ccncc2)[nH]n1-c1ccc(Cl)cc1,110
NC(=O)c1cccc(-c2cc(Nc3ccc(OC(F)(F)F)cc3)ncn2)c1,105
O=C(c1ccccc1)c1ccc(N2CCOCC2)cc1O,92.9

# Study 3
# Structure (SMILES): Cc1nc(N2CC[C@@H](O)C2)ncc1-c1cc(C(F)(F)F)cc2[nH]ncc12
# Technique: competition with immobilised ligand
# Tested at: 1 µM
target,observed,remaining binding [%]
"PRKG2 (Homo sapiens, UniProt Q13237)",binding,100
"FGFR4 (Homo sapiens, UniProt P22455)",cell-free assay,90
"CDK9 (Homo sapiens, UniProt P50750)",binding,87
"KIT (Homo sapiens, UniProt P10721, D816V)",cell-free assay,100
"KIT (Homo sapiens, UniProt P10721)",cell-free assay,67
"Ribosomal protein S6 kinase alpha-2, C-terminal kinase domain (RPS6KA2, Homo sapiens, UniProt Q15349)",binding,100
"CDK5 (Homo sapiens, UniProt Q00535)",binding,99
"CILK1 (Homo sapiens, UniProt Q9UPZ9)",binding,100
"PIP5K1C (Homo sapiens, UniProt O60331)",binding,100
"DDR1 (Homo sapiens, UniProt Q08345)",cell-free assay,100
"MAP3K14 (Homo sapiens, UniProt Q99558)",binding,68
"PIK3CA (Homo sapiens, UniProt P42336, H1047Y)",cell-free assay,99
"STK26 (Homo sapiens, UniProt Q9P289)",binding,59
"Tyrosine-protein kinase ABL1, phosphorylated (ABL1, Homo sapiens, UniProt P00519, H396P)",binding,61
"NTRK2 (Homo sapiens, UniProt Q16620)",cell-free assay,53
"DYRK1A (Homo sapiens, UniProt Q13627)",cell-free assay,73

# Study 4
# Cell line: Huh-7
# Tested at: 10 µM
# Time: 24 h
SMILES,viability [%]
CC(C)(S)[C@@H](N)C(=O)O,96.2
C[C@@H]1C/C=C/C=C/C=C/C=C/[C@H](O[C@@H]2O[C@H](C)[C@@H](O)[C@H](N)[C@@H]2O)C[C@@H]2O[C@](O)(C[C@@H](O)C[C@H]3O[C@@H]3/C=C/C(=O)O1)C[C@H](O)[C@H]2C(=O)O,101
O=C(Oc1ccccc1C(=O)O)c1ccccc1O,102
NC(=O)NC1NC(=O)NC1=O (stereo not shown),91.9
C[C@]12C=CC(=O)C=C1CC[C@@H]1[C@@H]2C(=O)C[C@@]2(C)[C@H]1CC[C@]2(O)C(=O)CO,99.2
CN/C(=N/CCSCc1nc[nH]c1C)NC#N,103
O=C1NC(=O)C(c2ccccc2)(c2ccccc2)N1,96.9
CC(CCc1ccccc1)NCC(O)c1ccc(O)c(C(N)=O)c1 (stereo not shown),97
CO[C@H]1C[C@H](O[C@H]2[C@H](C)[C@@H](O[C@@H]3O[C@H](C)C[C@H](N(C)C)[C@H]3OC(C)=O)[C@@H](C)C[C@@]3(CO3)C(=O)[C@H](C)[C@@H](OC(C)=O)[C@@H](C)[C@@H](C)OC(=O)[C@@H]2C)O[C@@H](C)[C@@H]1OC(C)=O,97.5
O=C(O)CCC(=O)c1ccc(-c2ccccc2)cc1,103
CN(C)c1ccc(O)c2c1C[C@H]1C[C@H]3[C@H](N(C)C)C(O)=C(C(N)=O)C(=O)[C@@]3(O)C(O)=C1C2=O,84.9
Cc1nnc(NS(=O)(=O)c2ccc(N)cc2)s1,101
CN1C(C(=O)Nc2ccccn2)=C(O)c2ccccc2S1(=O)=O,102

# Some of these lines once more (study 3):
target,observed,remaining binding [%]
"CDK5 (Homo sapiens, UniProt Q00535)",binding,99
"CILK1 (Homo sapiens, UniProt Q9UPZ9)",binding,100
"PIP5K1C (Homo sapiens, UniProt O60331)",binding,100
"DDR1 (Homo sapiens, UniProt Q08345)",cell-free assay,100
"MAP3K14 (Homo sapiens, UniProt Q99558)",binding,68
"PIK3CA (Homo sapiens, UniProt P42336, H1047Y)",cell-free assay,99
"STK26 (Homo sapiens, UniProt Q9P289)",binding,59
